Measured values collected from several papers.
Numbered parts are unrelated; each lists some results of a single study.

Sample 1 — method: RNA Bind-n-Seq; molecule type: RNA; matrix: in vitro; tested at: 200 nM; notes: whole 134-nt RNA, ends assumed; with: 150 mM LiCl; reference: input library; direction: higher = stronger binding; each molecule: 7-deaza-guanosine replaces G
Target: Fragile X messenger ribonucleoprotein 1, C-terminal low-complexity region (Fmr1, Mus musculus, UniProt P35922)
The log2 enrichment of `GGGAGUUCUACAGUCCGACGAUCAGUCCUGUGCUACACAUCGUAUGUACCGAAUCAAAUUUAAAUUUAAACCCCCCCAAAAAAGUAUUAUGUUACGCCGUUCGGAUCUGCACUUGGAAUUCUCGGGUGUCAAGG` is reported as 1.49.
For `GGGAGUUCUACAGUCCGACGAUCGUCCUGUGCUACACAUCGUAUGUACCGAAUCGUGUGUGUGUGUGUGUGUGUGUGUGUGAAAGUAUUAUGUUACGCCGUUCGGAUCUGCACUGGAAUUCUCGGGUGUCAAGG`, the log2 enrichment was -0.228.
For `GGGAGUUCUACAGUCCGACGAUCCUCAAGUCCUGUGCUACACAUCGUAUGUACCGAAUCGGGGAGGGGAGGGAGGGAAAGUAUUAUGUUACGCCGUUCGGAUCUGCACUUCCAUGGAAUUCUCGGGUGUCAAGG`, the log2 enrichment was -0.292.
The log2 enrichment of `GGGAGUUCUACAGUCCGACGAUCAAGUCCUGUGCUACACAUCGUAUGUACCGAAUCGGGUUUGGGAGGGUUUUUUUGGGAAAGUAUUAUGUUACGCCGUUCGGAUCUGCACUUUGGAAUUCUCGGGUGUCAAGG` is reported as -0.762.
For `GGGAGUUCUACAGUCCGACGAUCUGGCCCUGGUGGCAUGCGGAGAGGAAGAGGUGGCCUCAUGGAUCGUGGUGGUCCCGGUGGAAUGUUCAGAGGUGGCCGUGGUGGAGACAGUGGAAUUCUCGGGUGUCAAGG`, the log2 enrichment was -0.152.
With `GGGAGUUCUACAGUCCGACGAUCUCCUGUGCUACACAUCGUAUGUACCGAAUCGGGUUUUUGGGUUUUUUUGGGUUUUUGGGAAAGUAUUAUGUUACGCCGUUCGGAUCUGCAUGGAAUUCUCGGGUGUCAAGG` the log2 enrichment was 0.0696.
For `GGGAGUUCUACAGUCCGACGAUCGCAGGAGGUAAAAACAAAUGGAAAUGCUUCGGAUAGUGGCAGGGGUGGGGGUUGCUAAGGAAAGGGUGGGAUGGGAGUGGGUAAAGAGUUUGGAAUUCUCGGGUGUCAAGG`, the log2 enrichment was 1.63.
For `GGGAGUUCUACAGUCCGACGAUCUUUUAGGAAGCUGCAGUAAAGGAAGAUGAAGAAGAAGUUUCAGAUAAGGGCAGUGAUUCUGAAGAAGAAGAAACCAAUAGAGAUUCCCAAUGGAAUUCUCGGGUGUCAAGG`, the log2 enrichment was -2.79.
For `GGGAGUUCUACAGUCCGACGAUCCAAGUCCUGUGCUACACAUCGUAUGUACCGAAUCGGGAGGGUUUUUUUGGGAGGGAAAGUAUUAUGUUACGCCGUUCGGAUCUGCACUUCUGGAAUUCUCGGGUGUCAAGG`, the log2 enrichment was 0.107.
`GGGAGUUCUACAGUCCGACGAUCAGUCCUGUGCUACACAUCGUAUGUACCGAAUCGGGUUUUUGGGAAAAAAAGGGAGGGAAAGUAUUAUGUUACGCCGUUCGGAUCUGCACUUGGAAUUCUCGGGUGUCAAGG` gave a log2 enrichment of -2.34.
`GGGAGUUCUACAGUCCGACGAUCUGGGAGGUGGAUUUUGUUUAUUUUUUUAGCUCAUUUCCAGGGGUGGGAAUUUGUUUUUAAUAUGUGUCAUGAAUAAAGUUGUUUUUGAAAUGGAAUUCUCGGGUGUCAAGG` gave a log2 enrichment of -0.582.

Sample 2 — method: RNA Bind-n-Seq; molecule type: RNA; matrix: in vitro; tested at: not given; reference: input RNA pool; direction: higher = stronger binding
Target: RING finger protein unkempt homolog, zinc fingers 1-6, GST-SBP tag (UNK, Homo sapiens, UniProt Q9C0B0, residues 30-357)
Notes: RNA with constant flanks, human-mouse chimeric sites, ends assumed
Construct (chain): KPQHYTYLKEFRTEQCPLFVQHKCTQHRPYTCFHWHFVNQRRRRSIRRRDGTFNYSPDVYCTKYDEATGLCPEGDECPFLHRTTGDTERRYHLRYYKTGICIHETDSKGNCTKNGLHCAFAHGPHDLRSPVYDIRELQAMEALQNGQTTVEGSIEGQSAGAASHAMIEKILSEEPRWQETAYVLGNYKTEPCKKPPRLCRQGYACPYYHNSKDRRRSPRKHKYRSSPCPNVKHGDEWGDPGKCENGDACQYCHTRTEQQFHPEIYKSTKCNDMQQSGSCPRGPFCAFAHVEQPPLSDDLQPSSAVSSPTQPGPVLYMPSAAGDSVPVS
For `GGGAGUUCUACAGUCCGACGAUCAUGGAACAUUUCGAUGCGUCACUCAGUACCUAUUUCAAGGCAUUGCUGGGCCCCCGAGAUACAAGAGUAAAAGGAUGGUUCCUCCUGGACAAUUACAUCCCUACGUUUGUCUGUUCUGUUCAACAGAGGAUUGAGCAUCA`, the bound/input enrichment was 0.0923 ratio.
With `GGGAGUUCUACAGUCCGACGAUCAACAGAUUGUCUUUAAGCAUUCCAAGCGAGAAUGCUGGGGUGAUCAUAAUUACCCACGUGCCUUCUGACUGAGCUUUAAUGCUGUUCAUCCUUGAUGCUUUCCUUCACUCCAGAAUUGUUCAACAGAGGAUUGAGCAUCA` the bound/input enrichment was 0.0958 ratio.
The bound/input enrichment of `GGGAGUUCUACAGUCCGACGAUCCUCUUUGAAUCAUUCAAGAGUUUUGAAGGUCUCUUUUAUUUUCUGGGAUCCAUUGUUAACUUUAGUCAGGACCCAGAUGUGCACUUUAAAUAUAUUCAGGCAGCUUGCAAGACUGGGCAACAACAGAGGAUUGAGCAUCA` is reported as 0.991 ratio.
The bound/input enrichment of `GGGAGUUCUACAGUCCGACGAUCGUACUGCAGCAGCAGGGAAAACUGCAGGAAGCUCUGAUGCACUAUAAGGAGGCUAUUCGAAUCAGUCCUACCUUUGCUGAUGCUUAUUCUAAUAUGGGAAACACUCUAAAGGAGAUGCAGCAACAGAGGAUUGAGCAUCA` is reported as 0.153 ratio.
With `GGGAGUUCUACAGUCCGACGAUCUGGCGCCUGCGCUCCCCACUCGUGUUUGUAUUUUUAUUUUUAUAAGAUACAUGUAUUUACAAUUGAGCUUUUGUUACAUAAUGCUGAAAACAUCUCUGAGAUUAUGAAAAAUGUUUCAAUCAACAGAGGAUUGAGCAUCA` the bound/input enrichment was 0.137 ratio.
`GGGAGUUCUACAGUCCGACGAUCGGCUGCUGGUGACUGUCCUGGAGUGGCUGGAGUUCCCGCCGGAGCGCGGCCAGACUAAUUAUAGAAAAUGCCAAGUAGGAAGUUUGUCGAUGGUGAAGUGGUCAGAGGCCGAUGGCCUGGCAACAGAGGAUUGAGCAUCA` has a bound/input enrichment of 1.48 ratio.
For `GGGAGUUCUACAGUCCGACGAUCUAAAUUAGGGCUGCCGUUUUCUGUUUCUCCCUGGGCUGCAGACAGCUAGAAGAUUUUAUCUAGUUUGUACAAGGCUGCUGGUGUUCCCUCUUUUUUUCCACGAGGGUGUUUUUGGCUGCACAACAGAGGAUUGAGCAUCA`, the bound/input enrichment was 0.679 ratio.
The bound/input enrichment of `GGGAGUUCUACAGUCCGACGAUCGAAUCCUACUCAGGCGGUCCCACAACAACCAAGCUCACAGCAGCAGCAUCUUAGUCACAGUAGGGUAGCUUUAGGGCUCUGUGGCCAGGGUUUUAUUCACAUGCAGGUUUGGAAAAUGUACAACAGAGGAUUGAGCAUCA` is reported as 0.41 ratio.
With `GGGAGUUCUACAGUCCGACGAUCAGAAAGCAAAACUUGGAACGAUUUAAGAAAGGAGACGUAAGAUUCUUGAUUUGCACAGAUGUAGCUGCUAGAGGGAUUGAUAUCCACGGCGUUCCUUAUGUGAUCAAUGUCACUCUGCCUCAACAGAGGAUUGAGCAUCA` the bound/input enrichment was 0.107 ratio.
The bound/input enrichment of `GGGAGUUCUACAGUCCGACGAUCUGUGCCCCACAAGAUCCUACCUGAGUGGCAGCUGAAGUUGACUCCCUCUCCUUGCCUGAACCCCCCCCCACUGCCCCUUGAGUCCACAGUGUCGGCUGAGAUGUUGCCUCUGCACGGUUCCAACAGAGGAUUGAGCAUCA` is reported as 0.385 ratio.
With `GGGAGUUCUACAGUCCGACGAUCGUACUGCAGCAGCAGGGAAAACUGCAGGAAGCUCUGAUGCAUUAUAAGGAGGCUAUUCGAAUUAGUCCUACCUUUGCUGAUGCCUACUCUAAUAUGGGAAACACUCUAAAGGAGAUGCAGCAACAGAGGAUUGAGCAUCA` the bound/input enrichment was 0.181 ratio.

Sample 3 — method: protein binding microarray; molecule type: double-stranded DNA, one strand shown; matrix: in vitro; tested at: not given; reference: not given; direction: higher = stronger binding
Target: Histone acetyltransferase KAT6A, both winged helices, GST fusion (KAT6A, Homo sapiens, UniProt Q92794, residues 1-181)
Notes: 8-mer, flanks averaged, mean of 2 arrays, mostly near background
Target sequence (chain): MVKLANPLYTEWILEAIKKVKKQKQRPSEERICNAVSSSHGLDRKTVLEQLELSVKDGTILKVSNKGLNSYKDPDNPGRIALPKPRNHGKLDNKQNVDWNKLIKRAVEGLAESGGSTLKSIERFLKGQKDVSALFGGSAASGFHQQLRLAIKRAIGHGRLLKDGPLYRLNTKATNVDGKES
`GTAATCGA` has an E-score of -0.101.
With `CACTCATC` the E-score was -0.146.
With `CACGCCAA` the E-score was 0.00844.
With `CCTGTAAC` the E-score was -0.0531.
`CAAGGTAA` has an E-score of 0.0304.
For `GCGCCCAC`, the E-score was 0.0983.
`ACGGGCAG` has an E-score of 0.138.
`AGCGACGA` has an E-score of -0.0723.
`GTAACGGA` has an E-score of 0.203.
For `AACAACAA`, the E-score was -0.195.
`TATCGCGA` gave an E-score of 0.237.
With `ATGGGGTG` the E-score was -0.131.
For `ACATAGAT`, the E-score was 0.0146.
The E-score of `AACTACCC` is reported as -0.0716.
With `CACAAAGC` the E-score was 0.0501.
`ACCGAGCA` gave an E-score of -0.0139.
`ATCCTAAG` gave an E-score of -0.227.
The E-score of `ATTTGAAC` is reported as 0.0226.
With `GAGCGCGA` the E-score was 0.254.

Sample 4 — method: protein-binding microarray; molecule type: double-stranded DNA, one strand shown; matrix: in vitro; tested at: 940 nM top; notes: 60-bp whole probe; with: salmon DNA 0.4 mg/ml; reference: random background probes; direction: higher = stronger binding; constant ends, left off below: GCCTAGCAC … GTCTTGATTCGCTTGACGCTGCTG
Target: Interferon regulatory factor 5, full length, phosphomimetic (IRF5, Homo sapiens, UniProt Q13568-2, residues 1-514, S451D/S453D/S456D/S462D)
`AAGAGTTTCCCTCCCTGAGTGTGCTAG` — result for “fitted relative affinity”: 1.14 z-score.
Under “fitted relative affinity”, `GACGGTTTCCTTCTCATGACGTGCTAG` is recorded as 1.94 z-score.
For `TTCACTTTAACTTATTCTCTAGTGCTA`, “fitted relative affinity” read 1.14 z-score.
`TTAGGTTTCCTTCTACTTTAGTGCTAG`: “fitted relative affinity” 2.48 z-score.
`TCATTTTCATTTTATGACACTGTGCTA` — result for “fitted relative affinity”: 1.24 z-score.
`GACGGTTTCGGGACTGCGGACGTGCTA` — result for “fitted relative affinity”: 6.64 z-score.
Under “fitted relative affinity”, `GACGGAATGGGTTTCGGGACGTGCTAG` is recorded as 3.34 z-score.
`GACGGTCTCGGACTGGGGTCGTGCTAG`: “fitted relative affinity” 0.768 z-score.
Under “fitted relative affinity”, `TTAGGTTTCGACACTGGGCTAGTGCTA` is recorded as 7.81 z-score.
For `TTAGGACTGGGGCATCGGTTAGTGCTA`, “fitted relative affinity” read 0.0385 z-score.
For `ATGTTTTTCATTTTTTTTCAGTGCTAG`, “fitted relative affinity” read 1.72 z-score.
`TCAGTTCTCAGACTGGGACTGTGCTAG`: “fitted relative affinity” 0.346 z-score.
`GACGGTCTCCCTATCCTGACGTGCTAG` — result for “fitted relative affinity”: 0.587 z-score.
`TCTTTTTGCTTTCTTTATGCGTGCTAG`: “fitted relative affinity” 2.38 z-score.
`GACGGACTGGGACTGCGGACGTGCTAG`: “fitted relative affinity” -0.693 z-score.
`TTAGATATCGGGTATCGATCAGTGCTA`: “fitted relative affinity” 2.86 z-score.

Repeated from above (sample 3):
`CAAGGTAA` has an E-score of 0.0304.
For `GCGCCCAC`, the E-score was 0.0983.
`ACGGGCAG` has an E-score of 0.138.
`AGCGACGA` has an E-score of -0.0723.
`GTAACGGA` has an E-score of 0.203.
For `AACAACAA`, the E-score was -0.195.
`TATCGCGA` gave an E-score of 0.237.
With `ATGGGGTG` the E-score was -0.131.
For `ACATAGAT`, the E-score was 0.0146.
